Assay results from different studies.
Parts stem from different laboratories: compare values within a part only. Positions count from the first letter of the parent shown.

Set 1
Target: Homeobox protein Hox-B13, full length (HOXB13, Homo sapiens, UniProt Q92826, residues 1-284)
Chain of UniProt Q92826 (whole entry, looked up): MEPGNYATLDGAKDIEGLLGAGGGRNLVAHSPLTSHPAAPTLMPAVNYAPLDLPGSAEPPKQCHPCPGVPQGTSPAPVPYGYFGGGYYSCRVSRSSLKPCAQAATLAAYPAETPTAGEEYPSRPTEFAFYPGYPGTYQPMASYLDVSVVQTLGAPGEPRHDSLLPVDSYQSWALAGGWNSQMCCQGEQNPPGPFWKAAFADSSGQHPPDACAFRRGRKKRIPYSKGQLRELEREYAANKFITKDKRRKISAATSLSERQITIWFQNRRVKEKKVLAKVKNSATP
Method: protein-binding microarray
Molecule type: hairpin DNA
Medium: in vitro
Concentration: not given
Setting: whole hairpin DNA, median over replicate spots
Baseline: not given
Direction: higher = stronger binding
Oligonucleotide | median fluorescence [a.u.]
GAGGCCCGTTTATTGGGGCCTCCTGGCCCCAATAAACGGGCCTCACACTC (5mC at 7) | 4730
GAGGCCGTTATATTGGGGCCTCCTGGCCCCAATATAACGGCCTCACACTC | 4490
GAGGCCGTTCTACGAGGGCCTCCTGGCCCTCGTAGAACGGCCTCACACTC (5mC at 10) | 4030
GAGGCCGTTTAACGAGGGCCTCCTGGCCCTCGTTAAACGGCCTCACACTC | 4960
GAGGCCGTTTTACGTGGGCCTCCTGGCCCACGTAAAACGGCCTCACACTC | 4350
GAGGCCGTCGTACGAGGGCCTCCTGGCCCTCGTACGACGGCCTCACACTC (5mC at 9) | 3960
GAGGCCGTGTTACGAGGGCCTCCTGGCCCTCGTAACACGGCCTCACACTC (5mC at 36) | 4240
GAGGCCGTTTTACGACGGCCTCCTGGCCGTCGTAAAACGGCCTCACACTC (5mC at 28) | 4570
GAGGCCGTTTTACGAAGGCCTCCTGGCCTTCGTAAAACGGCCTCACACTC | 4320
GAGGCCGTTTTACGCGGGCCTCCTGGCCCGCGTAAAACGGCCTCACACTC | 4310
GAGGCCGTTTCGTTGGGGCCTCCTGGCCCCAACGAAACGGCCTCACACTC (5mC at 33) | 4110
GAGGCCGTTTTACGCGGGCCTCCTGGCCCGCGTAAAACGGCCTCACACTC (5mC at 15) | 4050
GAGGCCGTTTTACGAGGGCCTCCTGGCCCTCGTAAAACGGCCTCACACTC (5mC at 13) | 5130
GAGGCCGTTCGACGAGGGCCTCCTGGCCCTCGTCGAACGGCCTCACACTC (5mC at 10) | 3970
GAGGCCCTTTTACGAGGGCCTCCTGGCCCTCGTAAAAGGGCCTCACACTC | 4630
GAGGCCGTTTTACCAGGGCCTCCTGGCCCTGGTAAAACGGCCTCACACTC (5mC at 14) | 4240
GAGGCCGTTTTCGGAGGGCCTCCTGGCCCTCCGAAAACGGCCTCACACTC | 3790
GAGGCCGTCTTACGAGGGCCTCCTGGCCCTCGTAAGACGGCCTCACACTC (5mC at 9) | 4170
GAGGCCGTTTTTCGAGGGCCTCCTGGCCCTCGAAAAACGGCCTCACACTC | 3730

Set 2
Target: RNA binding protein fox-1 homolog 2, RRM domain, GST-SBP tag (RBFOX2, Homo sapiens, UniProt O43251-10, residues 100-194)
Method: RNA Bind-n-Seq
Molecule type: RNA
Medium: in vitro
Concentration: 365 nM
Setting: natural RNA segment, single round, ends assumed
Baseline: no-protein control
Direction: higher = stronger binding
Shared flanks, not repeated: GGGAGUUCUACAGUCCGACGAUC … UGGAAUUCUCGGGUGCCAA
Target sequence (chain): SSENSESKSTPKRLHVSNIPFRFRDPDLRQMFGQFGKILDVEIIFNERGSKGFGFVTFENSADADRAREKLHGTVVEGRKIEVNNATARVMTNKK
Oligonucleotide | RBNS enrichment (R)
UCUCAUUAGAGGAAGCUUUCCAAAGUUCUCAGUUAUCAAGACCUCAUCCAGCUCGUCCAAAGGCUUCAGGGAUGGAAACAAACCAGCUCGUCUCAGAGGCCAGCAAGCUG | 0.34
GAUGAGAUGGAUCAAGGUCAAAAUGAUCCUUUAUCUACAUUUUCCAAAGAGAAUCUAAUUUUUUCAGUGGGUGAACUCAUCAUUGCUGGAACUGAAACUACAACCAAUGU | 0.256
CUGUAAAAACAGUGCUCUCUGCUGCUAGGACCUUUUUUCUGCUUCCUGUCAUUUUCAUGUGGCUUGAGCUCUGAGACGUGCGGAUGAGGCUGGACAACUACUACCCAUAC | 0.649
UCACUGUGACCUUGAGAAGAUUCUUCCCAUUCUCCAUUUGUUAUCUGGGAACUUAUUAAAUGGAAACUGAAACUACUGCACCAUUUAAAAACAGGCAGCUCAUAAGAGCC | 0.487
UAGAAGUGGGUGACCCAUUGAGGACACAUGAUGUGAGGUAUUUCUGCCGGAUUCUAGGUUAGCAAAGACUCAAAUGGGUGACUCAUGAAUGAAGGGAGAACAGGCACAGG | 2.16
GGGAAGCAACUCCGUGUGCCUGGGGUUCCCGAGGGAGCUGCUGGCUGACCUGGGCCCACAGAGCCUGGCUUUGGUCCCCAGCAUUGCAGUAUGGUGUGGUGUUUGUAGGC | 1.21
UGCAUCACCUCUUCUCAUCAGUGGUCAGGAGAAGUGCAGCUAGAAAGUGGCCCACACAAGCCGUCUGAUUUGUCCUCCCACAUAAUGGCAGGCACAGGCCAUGGCACUGG | 0.263
CUCCCGUUUGUACCUCAACAGAUGCAAAUUCCCCUCUCGUUCACCCUACGCCCUUUUUGGUACACUUAGAAGUUUUCCUUUUCCAUCAAUGGUACUGUUUCUUAGUGUUU | 0.706
CCAAAGGAGAGUGCGUUGUCAUAGAAACCACAUAAAACUAUCCUUCCAGAGGCUUCACCACCUUGCACUGCUCUAUCUGGUUGGGGGUGGGCAGGAGAACCCCUCGCUUU | 0.52
GACAAGUAACAACUCAAAUAAUUCCAUAUUGUUUGAGGAAGAGGCCAUAAUCCUUCUGAAUUGUUGGCACUAAGUAAUGGGAUUUGGCCCAGUAAGUAUGACGGUCGUGU | 0.293
CUUCUUGGGCCCGGUCCACAGGUCCAAGGACACCCUCCCUCCAGGGUCCUCUCUUCCACAGUGGCGGGCCCACUCAGCCCCGAGACCACCCAACCUCACCCUCCUGACCC | 0.345
UAUUCUAUUAGACUUCAUGCUGUAAAGAGAACAUGUUAUUUUGCCUCUAAACUUUGAUUUAUUGAAGUUUUAUUUGGCAAGAAAAAAGAAAUUGAAUCUUGAUCAAUAUU | 0.528

Set 3
Cell line: yeast with cyclin F-Cln2 chimera
Effect on: cell growth
Action: binder
Method: competitive growth deep sequencing
Molecule type: peptide
Concentration: concentration not given
Setting: peptide tiling library
Direction: direction not given
Molecule | growth enrichment score
DTERAHSTLDEDLERW | -0.362
TARRIFQEPTEPKTKA | 2.74
FREFEVEKQTAEETGL | 0.568
VKRLNFRSEEME | 1.96
SAVPLILPQAPSGPSY | 0.348
PLRKAKRARLCSSSSS | 0.737
SSEVARHLLFQSHM | 3.03
IVLICAKRSLCAAFSV | 1.01
SCCKRKLVVGNGPEGP | 1.01
IPDRSTKPVVFSPT | -0.0998
EPRNLLSLFEDTLDPT | 3.05
DSDSDSEGGAAGGEAD | 1.41
RKLHFEDEVT | 3.49
NARRSLNFGGSTGT | 3.99
KPITLDTTDFQESFVT | -0.105
AIRKMREDRWAVIAKM | 0.937

Set 4
Target: ABI1, truncated, D143A, DHFR fusion (Arabidopsis thaliana)
Method: DHFR PCA, deep sequencing
Medium: yeast
Setting: methotrexate growth selection, single substitutions
Added: (+)-ABA 0.032 µM
Baseline: wild-type fitted maximum
Direction: higher = stronger binding
Starting sequence: PYL1, truncated, DHFR fusion (Arabidopsis thaliana); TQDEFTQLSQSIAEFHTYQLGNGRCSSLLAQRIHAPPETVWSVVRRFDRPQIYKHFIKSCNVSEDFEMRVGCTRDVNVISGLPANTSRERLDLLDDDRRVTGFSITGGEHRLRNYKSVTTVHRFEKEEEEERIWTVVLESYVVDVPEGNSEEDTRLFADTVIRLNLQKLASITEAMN
Substitution | relative binding score
V145P | -9.16%
R46I | -18.3%
S59D | 24.1%
E14G | 1.72%
R98K | 35.7%
E89D | 8.55%
L138C | -1.36%
I12T | -4.1%
Y115I | 1.48%
R113T | 15%
S11M | 17.2%
D97N | 24.5%
N114A | -2.1%
L82C | 15.8%
I105N | -0.346%
E152V | 3.99%
S63T | 13.6%
C60L | 8.48%
C72R | -1.61%
V43G | -4.46%
R113V | 33.6%
D159M | -6.57%
V121P | 0.465%
V137F | 8.96%
C72W | 7.97%

Set 5
Target: Interferon regulatory factor 7, full length, phosphomimetic (IRF7, Homo sapiens, UniProt Q92985, residues 1-503, S471D/S472D/S475D/S476D/S477D/S483D/S484D/S487D)
Method: protein-binding microarray
Molecule type: double-stranded DNA, one strand shown
Medium: in vitro
Concentration: 2200 nM top
Setting: 60-bp whole probe
Added: salmon DNA 0.4 mg/ml
Baseline: random background probes
Direction: higher = stronger binding
Shared flanks, not repeated: GCCTAGCAC … GTCTTGATTCGCTTGACGCTGCTG
Residues (chain): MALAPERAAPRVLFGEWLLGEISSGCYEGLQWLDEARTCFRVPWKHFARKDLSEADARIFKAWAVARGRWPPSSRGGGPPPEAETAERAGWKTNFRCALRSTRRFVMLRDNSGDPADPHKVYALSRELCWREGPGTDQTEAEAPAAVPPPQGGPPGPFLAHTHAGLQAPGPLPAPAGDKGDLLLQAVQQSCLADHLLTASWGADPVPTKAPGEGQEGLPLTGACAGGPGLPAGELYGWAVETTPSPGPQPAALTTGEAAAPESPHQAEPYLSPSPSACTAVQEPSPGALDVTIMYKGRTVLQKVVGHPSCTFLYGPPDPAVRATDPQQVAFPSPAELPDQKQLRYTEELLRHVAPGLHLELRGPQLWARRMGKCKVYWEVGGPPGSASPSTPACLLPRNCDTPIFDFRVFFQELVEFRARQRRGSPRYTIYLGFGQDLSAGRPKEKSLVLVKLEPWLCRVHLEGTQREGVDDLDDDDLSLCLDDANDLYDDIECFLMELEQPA
Oligonucleotide | fitted relative affinity
GACGGTATCGGACTGGGGCCGTGCTAG | -0.477 z-score
GACGGACTGCTATTGCTGACGTGCTAG | -0.0976 z-score
TCATTTTGGTTTCTGGTACTGTGCTAG | 4.5 z-score
GACGGTTTCCTACTGCTGACGTGCTAG | 2.03 z-score
CTCTGCTTGTGTCTGGGCTTGTGCTAG | 0.71 z-score
TCAGAACTGTTTCTTGAACTGTGCTAG | 0.514 z-score
TGTTACTAGGGTTACATAATGTGCTAG | 0.274 z-score
GACGGTTTACTTTTCCTGACGTGCTAG | 2.33 z-score
TCAGAACTGAGTCTCGATTAGTGCTAG | 0.000429 z-score
TTAGGTATCGACACTGGGTAAGTGCTA | -0.266 z-score
TTAGGTCTCGGACTGTGTTAGTGCTAG | 0.188 z-score
TACGGTTTCGACTTTCGGGACGTGCTA | 8.84 z-score
TCATCTAAAAAGTCTCTGACTGTGCTA | -0.38 z-score
TTAGGTCTCGGATTCGGTTAGTGCTAG | 2.07 z-score
TTAGGACTGGGTTTCGGGTAGTGCTAG | 2.09 z-score
GACGATTTCAGTCTCAAGACGTGCTAG | 0.564 z-score
TTAGGTTTCGGAATCGGTTAGTGCTAG | 6.3 z-score
TCAGTTCCCTATTTAAGACTGTGCTAG | 2.41 z-score
GACGGACGGGGTTTCGGGACGTGCTAG | 0.898 z-score
TCACGTCTGATTTTGCTACTGTGCTAG | 1.4 z-score
TTAGATTACGGGTTTCGATTAGTGCTA | 2.82 z-score
TCATCTTCATGTTTTTTACTGTGCTAG | 1.73 z-score
TTAGGTATCAGTTTCGATTAGTGCTAG | 5.85 z-score
TCATCTTTCTGTCAGTTACTGTGCTAG | 2.2 z-score
GACGAACTGAGACTGGAGATGTGCTAG | -0.498 z-score

A few entries again (set 1):
Oligonucleotide | median fluorescence [a.u.]
GAGGCCGTTTTACGAAGGCCTCCTGGCCTTCGTAAAACGGCCTCACACTC | 4320
GAGGCCGTTTTACGCGGGCCTCCTGGCCCGCGTAAAACGGCCTCACACTC | 4310
GAGGCCGTTTCGTTGGGGCCTCCTGGCCCCAACGAAACGGCCTCACACTC (5mC at 33) | 4110
GAGGCCGTTTTACGCGGGCCTCCTGGCCCGCGTAAAACGGCCTCACACTC (5mC at 15) | 4050
GAGGCCGTTTTACGAGGGCCTCCTGGCCCTCGTAAAACGGCCTCACACTC (5mC at 13) | 5130
GAGGCCGTTCGACGAGGGCCTCCTGGCCCTCGTCGAACGGCCTCACACTC (5mC at 10) | 3970
GAGGCCCTTTTACGAGGGCCTCCTGGCCCTCGTAAAAGGGCCTCACACTC | 4630
GAGGCCGTTTTACCAGGGCCTCCTGGCCCTGGTAAAACGGCCTCACACTC (5mC at 14) | 4240
GAGGCCGTTTTCGGAGGGCCTCCTGGCCCTCCGAAAACGGCCTCACACTC | 3790
GAGGCCGTCTTACGAGGGCCTCCTGGCCCTCGTAAGACGGCCTCACACTC (5mC at 9) | 4170
GAGGCCGTTTTTCGAGGGCCTCCTGGCCCTCGAAAAACGGCCTCACACTC | 3730
